Published values gathered from unrelated publications.
Parts stem from different laboratories: compare values within a part only. Positions count from the first letter of the parent shown.

Block 1 — method: protein-binding microarray; molecule type: double-stranded DNA, one strand shown; sample: in vitro; concentration: 250 nM; setting: 60-bp whole probe; together with: salmon DNA 0.4 mg/ml; relative to: random background probes; reading: higher = stronger binding; shared flanks, not repeated: GCCTAGCAC … GTCTTGATTCGCTTGACGCTGCTG
Target: Interferon regulatory factor 7, full length, phosphomimetic (IRF7, Homo sapiens, UniProt Q92985, residues 1-503, S101K/S471D/S472D/S475D/S476D/S477D/S483D/S484D/S487D)
UniProt Q92985, sequence (whole entry, unmodified, looked up): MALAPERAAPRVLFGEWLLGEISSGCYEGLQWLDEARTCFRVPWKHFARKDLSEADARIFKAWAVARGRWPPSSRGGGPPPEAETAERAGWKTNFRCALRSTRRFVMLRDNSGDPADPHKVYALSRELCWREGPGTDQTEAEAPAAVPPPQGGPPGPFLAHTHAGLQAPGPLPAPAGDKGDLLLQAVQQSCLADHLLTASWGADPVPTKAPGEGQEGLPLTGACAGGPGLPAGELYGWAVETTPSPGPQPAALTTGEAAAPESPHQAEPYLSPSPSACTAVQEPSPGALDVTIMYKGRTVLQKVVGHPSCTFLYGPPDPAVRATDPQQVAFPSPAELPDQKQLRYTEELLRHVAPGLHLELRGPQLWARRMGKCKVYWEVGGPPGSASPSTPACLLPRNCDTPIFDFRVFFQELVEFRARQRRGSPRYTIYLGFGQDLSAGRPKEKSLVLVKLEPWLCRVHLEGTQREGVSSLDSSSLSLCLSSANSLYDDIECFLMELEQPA
Oligonucleotide	log fluorescence
TTAGATTTCAGTTTCGAGTAGTGCTAG	5.25 z-score
TACGAACTGAGACTGGAGACGTGCTAG	-0.187 z-score
GGCTGTTTGGTCCTGAACCTGTGCTAG	-1.03 z-score
TCATCCATGGGTATGGCACTGTGCTAG	0.305 z-score
GACGATTCCAGACTGGAGACGTGCTAG	0.136 z-score
TCAGCTGTGGGTTTGAGACTGTGCTAG	-1.15 z-score
ACAAAGATTTTTATCAAATGGTGCTAG	0.414 z-score
TCAAAAGTCTTTTATGGTACTGTGCTA	0.0474 z-score
TGGAACTTAAAAGAAAGATAGTGCTAG	0.0677 z-score
GACGAACTGGGGTATCGAGAGGTGCTA	-0.706 z-score
TTAGGTATCGGACTGGGTTTGTGCTAG	0.343 z-score
TTAGTTTTCGACACTGGGTTAGTGCTA	0.908 z-score
GACGATTTCGGGATTCGAGACGTGCTA	1.12 z-score
TCACTTTCCTTTATGTCACTGTGCTAG	2.43 z-score
TTAGGACTGGACTTTCCGTTAGTGCTA	-0.301 z-score
GACGATTCCAGTGTCGAGACGTGCTAG	0.0366 z-score
CTGCACTCCAGTCTGGGAGAGTGCTAG	-0.392 z-score

Block 2 — method: Sort-seq; refers to: YFP reporter; sample: E. coli; setting: PhoQ-PhoP variant library; together with: 10 µM Mg2+; relative to: high Mg2+ state; reading: higher = stronger signaling
Substance: PhoQ, residues 284 288 289 292 302 303 QWQEDG
target	fold induction
PhoP, residues 12 14 15 18 19 TQALL (Escherichia coli, UniProt P23836)	5.65
PhoP, residues 12 14 15 18 19 NYFRM (Escherichia coli, UniProt P23836)	8.1
PhoP, residues 12 14 15 18 19 QYFSL (Escherichia coli, UniProt P23836)	3.91

Block 3 — target: CCNF, cyclin fold, Cln2 fusion (human); method: yeast growth competition, sequencing; sample: yeast; setting: strong parent motif; relative to: not given; reading: higher = stronger binding
Parent: WEE1 docking peptide (human); HKTFRKLRLFDTP
Substitution	normalised enrichment score
HKTFRKLRLFDRP [T12R]	1.92
HKTFRKLRLFDTW [P13W]	2.1
HKTFRKLRLFDHP [T12H]	1.94
HKTFRKLRLFQTP [D11Q]	3.59
HKTQRKLRLFDTP [F4Q]	3.77
HKTFRKNRLFDTP [L7N]	1.29
HKTFRKERLFDTP [L7E]	0.853
AKTFRKLRLFDTP [H1A]	2.1
QKTFRKLRLFDTP [H1Q]	2.21
HCTFRKLRLFDTP [K2C]	2.15
HKTFRKLRLFDTT [P13T]	3.06
HKTFRKVRLFDTP [L7V]	1.2
HKTFRTLRLFDTP [K6T]	0.963
HKTFRHLRLFDTP [K6H]	1.69
HKHFRKLRLFDTP [T3H]	2.3
HKTFRKLRLFDYP [T12Y]	0.957

Block 4 — method: RNAcompete; molecule type: RNA; sample: in vitro; concentration: 20 nM; setting: 7-mer, probes averaged, single round; relative to: mean of 7-mers; reading: higher = stronger binding
Target: PABPC1L2, full length, GST fusion (mouse, UniProt A0ABA7IW68)
Target sequence (chain): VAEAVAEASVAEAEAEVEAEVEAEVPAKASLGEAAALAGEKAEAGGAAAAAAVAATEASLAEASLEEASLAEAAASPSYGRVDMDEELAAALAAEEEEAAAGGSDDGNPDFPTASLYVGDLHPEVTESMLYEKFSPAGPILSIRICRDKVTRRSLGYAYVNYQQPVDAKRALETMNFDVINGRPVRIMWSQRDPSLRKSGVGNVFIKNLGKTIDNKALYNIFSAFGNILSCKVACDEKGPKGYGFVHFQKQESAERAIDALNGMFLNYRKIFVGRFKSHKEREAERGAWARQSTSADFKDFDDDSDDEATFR
Oligonucleotide	7-mer Z-score
AUGGAGC	-0.0138
GAGGAUG	0.0696
GAUUUAU	-0.0228
GCCAUGU	-0.199
ACCUCAU	-0.166
GGUAGGA	0.175
UGCAAUG	-0.0192
GGAAAUA	0.562
AAUAUAU	0.184

Repeated from above (block 3):
Substitution	normalised enrichment score
HKTFRHLRLFDTP [K6H]	1.69
HKTFRKVRLFDTP [L7V]	1.2
HKTFRKLRLFDRP [T12R]	1.92
HKTFRKLRLFDYP [T12Y]	0.957
HKTFRKNRLFDTP [L7N]	1.29
HKTQRKLRLFDTP [F4Q]	3.77
AKTFRKLRLFDTP [H1A]	2.1
